{"data": "Results from different studies", "note": "Every numbered part comes from another study and shows a few of its results, in no order."}
{"data": "Study 1", "target": "Sal-like protein 4, full length isoform B (SALL4, Homo sapiens, UniProt Q9UJQ4-2, residues 1-616)", "method": "universal PBM", "form": "double-stranded DNA, one strand shown", "sample": "in vitro", "concentration": "not given", "notes": "8-mer, flanks averaged, mean of replicates", "direction": "higher = stronger binding"}
{"Oligonucleotide": "GGAAGAAA", "E-score": 0.0381}
{"Oligonucleotide": "AAGCACAT", "E-score": 0.0774}
{"Oligonucleotide": "GCTGGTCA", "E-score": -0.135}
{"Oligonucleotide": "ACTTACAA", "E-score": 0.336}
{"Oligonucleotide": "AAGATCCA", "E-score": -0.0537}
{"Oligonucleotide": "AGAGGGAC", "E-score": -0.233}
{"Oligonucleotide": "AAAGCCGT", "E-score": 0.0433}
{"Oligonucleotide": "CGTCCCGA", "E-score": -0.215}
{"Oligonucleotide": "AGGCGGAC", "E-score": -0.287}
{"Oligonucleotide": "AACACTGG", "E-score": 0.048}
{"Oligonucleotide": "CTGGCGGC", "E-score": -0.287}
{"Oligonucleotide": "CGCATGCG", "E-score": -0.235}
{"Oligonucleotide": "TAGCGCCA", "E-score": -0.152}
{"data": "Study 2", "target": "Histone acetyltransferase KAT6A, winged helix 2, GST fusion (KAT6A, Homo sapiens, UniProt Q92794, residues 85-181)", "method": "protein binding microarray", "form": "double-stranded DNA, one strand shown", "sample": "in vitro", "concentration": "not given", "notes": "8-mer, flanks averaged, mean of 2 arrays, mostly near background", "relative to": "not given", "direction": "higher = stronger binding", "Target sequence (chain)": "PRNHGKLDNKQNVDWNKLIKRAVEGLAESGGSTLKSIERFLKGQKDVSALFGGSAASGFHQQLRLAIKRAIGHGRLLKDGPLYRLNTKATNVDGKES"}
{"Oligonucleotide": "GTCCCTAA", "E-score": -0.0993}
{"Oligonucleotide": "ATTCCGAA", "E-score": 0.101}
{"Oligonucleotide": "AAGCAATA", "E-score": -0.112}
{"Oligonucleotide": "AGCTGCTG", "E-score": 0.119}
{"Oligonucleotide": "ACCTACCC", "E-score": 0.0289}
{"Oligonucleotide": "TGGGTTAA", "E-score": -0.0154}
{"Oligonucleotide": "TCAGGCCA", "E-score": 0.0149}
{"Oligonucleotide": "CCGTGTCG", "E-score": 0.0291}
{"Oligonucleotide": "GATCGTCC", "E-score": 0.0275}
{"Oligonucleotide": "GCATACTA", "E-score": 0.0475}
{"Oligonucleotide": "ACAGAGCC", "E-score": -0.0035}
{"Oligonucleotide": "CGAGTCTA", "E-score": -0.273}
{"Oligonucleotide": "AAATGGTT", "E-score": -0.113}
{"Oligonucleotide": "CTCGACAC", "E-score": 0.127}
{"Oligonucleotide": "AGTACGCA", "E-score": 0.0242}
{"Oligonucleotide": "GAATGAGC", "E-score": -0.121}
{"Oligonucleotide": "ACTTTGTA", "E-score": 0.00342}
{"Oligonucleotide": "AATATCGT", "E-score": 0.0799}
{"Oligonucleotide": "ATCGCCTC", "E-score": 0.119}
{"Oligonucleotide": "CTGTAGTA", "E-score": -0.037}
{"Oligonucleotide": "CCGGCCAC", "E-score": 0.28}
{"Oligonucleotide": "ACCCAGGA", "E-score": 0.0259}
{"Oligonucleotide": "ATGCTACG", "E-score": 0.0715}
{"Oligonucleotide": "CGAGGAAA", "E-score": 0.0538}
{"Oligonucleotide": "AAATTATC", "E-score": 0.255}
{"data": "Study 3", "target": "Ras GTPase-activating protein-binding protein 1, full length (G3BP1, Homo sapiens, UniProt Q13283)", "method": "RNA Bind-n-Seq", "form": "RNA", "sample": "in vitro", "concentration": "200 nM", "notes": "whole 134-nt RNA, ends assumed", "added": "150 mM LiCl", "relative to": "input library", "direction": "higher = stronger binding", "library": "7-deaza-guanosine replaces G", "constant ends, left off below": "GGGAGUUCUACAGUCCGACGAUC … UGGAAUUCUCGGGUGUCAAGG", "sequence of UniProt Q13283 (whole entry, looked up)": "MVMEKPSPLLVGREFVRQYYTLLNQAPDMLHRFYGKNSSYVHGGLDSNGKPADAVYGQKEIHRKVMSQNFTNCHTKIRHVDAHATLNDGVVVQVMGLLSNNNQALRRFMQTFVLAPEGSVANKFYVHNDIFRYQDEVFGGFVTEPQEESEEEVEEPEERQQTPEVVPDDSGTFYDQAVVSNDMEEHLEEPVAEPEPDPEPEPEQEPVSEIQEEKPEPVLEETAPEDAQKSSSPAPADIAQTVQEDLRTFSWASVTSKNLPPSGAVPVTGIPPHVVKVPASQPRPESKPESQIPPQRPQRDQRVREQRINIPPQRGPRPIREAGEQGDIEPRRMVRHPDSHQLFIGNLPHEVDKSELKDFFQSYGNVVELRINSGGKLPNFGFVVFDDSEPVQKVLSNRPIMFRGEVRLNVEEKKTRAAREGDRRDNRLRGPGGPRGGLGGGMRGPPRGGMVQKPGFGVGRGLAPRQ"}
{"Oligonucleotide": "GCAGGAAGUAAAAACAAAUGGAAAUGCUUCGGAUAGUGGCAGGGGUGGGGGUUGCUCAGGAAAGGGUGGGAUGGGAGUGGGUAAAGAGUU", "log2 enrichment": 0.069}
{"Oligonucleotide": "UCAAGUCCUGUGCUACACAUCGUAUGUACCGAAUCGGGUUUGGGUUUGGGUGGGAAAGUAUUAUGUUACGCCGUUCGGAUCUGCACUUCC", "log2 enrichment": -0.572}
{"Oligonucleotide": "AAGUCCUGUGCUACACAUCGUAUGUACCGAAUCGGGAAAGGGAAAAAAAGGGUGGGAAAGUAUUAUGUUACGCCGUUCGGAUCUGCACUU", "log2 enrichment": -0.193}
{"Oligonucleotide": "CCACCAUGACCCCUGACGGUCUGGCUGUGACCCCAACGCCGGUGCCCGUGGUCGGGAGCCAGAUGACCAGACAAGCCCGGCGCCUCUACG", "log2 enrichment": 0.851}
{"Oligonucleotide": "UCAAGUCCUGUGCUACACAUCGUAUGUACCGAAUCGGUUUUUGGAGGAAAAAGGAAAGUAUUAUGUUACGCCGUUCGGAUCUGCACUUCC", "log2 enrichment": -0.227}
{"Oligonucleotide": "ACCAUGCAGGUGGGCAUCUUUGGGAAGUGGGGCAAGGGGGGGAUAAAGAGGGGGGUAACACUUUGGGAACAGGUGGUCCCAGGUCGUUUC", "log2 enrichment": 0.311}
{"Oligonucleotide": "UAACUUUAGAGGAUGAUCUGAUGGAUAUGGCAGUGGACGUGGAUUUGGGGAUGGCUAUAAUGGGUAUGGAGGAGGACCUGGAGGUGGCAA", "log2 enrichment": 0.00761}
{"Oligonucleotide": "UUGACAUGAAGACAAUGGAGACUGCAGAGAAACUGGCUAGAUUUGUUGCUCAGGUGGGACCAGAGAUCGAACAAUUCAGCAUAGAAAACA", "log2 enrichment": -1.43}
{"Oligonucleotide": "ACCAUGCAGGUGGGCAUCUUUGGGAAGUGGGGCAAGGGGGGGAUAGGGAGGGGGGUAACACUUUGGGAACAGGUGGUCCCAGAAAGUUUC", "log2 enrichment": -0.00707}
{"Oligonucleotide": "AAAUAUCAGUGAUCAUCGCAAGGAAGGAGGCAGACAAGAGUAAGGCACACCUGACUCUUAGGACUAGCAGUCAGAACCAGGAGGAAAGGU", "log2 enrichment": -0.296}
{"Oligonucleotide": "CUCAAGUCCUGUGCUACACAUCGUAUGUACCGAAUCGGUUUGGAGGUUUUUGGAAAGUAUUAUGUUACGCCGUUCGGAUCUGCACUUCCA", "log2 enrichment": 0.277}
{"data": "Study 4", "target": "RNA binding protein fox-1 homolog 2, RRM domain, GST-SBP tag (RBFOX2, Homo sapiens, UniProt O43251-10, residues 100-194)", "method": "RNA Bind-n-Seq", "form": "RNA", "sample": "in vitro", "concentration": "365 nM", "notes": "natural RNA segment, single round, ends assumed", "relative to": "no-protein control", "direction": "higher = stronger binding", "constant ends, left off below": "GGGAGUUCUACAGUCCGACGAUC … UGGAAUUCUCGGGUGCCAA", "Construct (chain)": "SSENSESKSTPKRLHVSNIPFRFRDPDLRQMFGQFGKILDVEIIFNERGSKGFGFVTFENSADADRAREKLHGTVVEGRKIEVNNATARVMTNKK"}
{"Oligonucleotide": "UGAUUUGCUUGUUUCAUACUGACAUCUAAAGACAUCAGCCUUCUCUUUGGCAACCCUGGGGAUACUCCUCUGCACCAUAACUUAUUAAUGUUUUUUUAGACAAGGCUAAA", "RBNS enrichment (R)": 1.75}
{"Oligonucleotide": "AACUCAUUUGCUCACUCCUUGACAGCAAAGCCCAGUACGUACAAUUGUGUUGGGUGUGGGUGGUCUCCAAGGCCACGCUGCUCUCUGAAUUGAUUUUUUGAGUUUUGUUU", "RBNS enrichment (R)": 0.26}
{"Oligonucleotide": "UGCUGGUCUGGCAAACACACCUUUCUGCUUUGCCUUCACAAAAGUAAUGUGUUCCCUUUCCCACCCCUUGCCUGACCCUCAGGGAGUCAGCCUGCUUCCAUCCAUGGGUG", "RBNS enrichment (R)": 1.7}
{"Oligonucleotide": "AGCAUUGUGGCUCCUAGUGCAGCCCUGCUUCCACUCUUGGUUUAGCUGGAACCUUCCCACUCAUGGAAUAUAAGUAAACUCACUUUCUUUGUCACCAAUAAAUGGUAAUA", "RBNS enrichment (R)": 0.454}
{"Oligonucleotide": "UUGUUCUUUAAUAUGCUGUCCAUGGCUGAGUUUAUUAGUACAUGGGCUUAGUGACCACAAAAUAUUUUAUUAAGAAACUGUUUCAAAAAUAAAUUUGCACUGUUCAUUUU", "RBNS enrichment (R)": 2.03}
{"Oligonucleotide": "CUGUUCUGCUCCUCCCAGACAGAGCCUUUCCCUCACCCCCUGACCCCCUGGGCUGACCAAAAUGUGCUUUCUACUGUGAGUCCCUAUCCCAAGAUCCUGGGGAAAGGAGA", "RBNS enrichment (R)": 0.721}
{"Oligonucleotide": "CCCCAGACCUAGACCUCCCUUCUAAAAGCCAGAACCAGGAAGGCUUGCAUAAAGAAGGUGUGGCCUCUGAGCUCUCAAGGGCCCCAGUUGCCACCAACCACCACCACAGG", "RBNS enrichment (R)": 0.325}
{"Oligonucleotide": "GAAAUGAGGUUGAGAUGUUUUUCAAGGCUAACUUCAUGGACUCACUCUGUUUAGUGACUUAAUUGUAUCCCACCAAUUACUGCUGGUGACUUACUCACCCUUGUACAGUG", "RBNS enrichment (R)": 0.457}
{"Oligonucleotide": "UGAAAAUUAGGCCAAAUGAUUUUAUUCCAAAUGUAAUUUAAUUGCUGCUGUUGGGCUUUCGUUUCUGCAAUUCAGCUUUGUUUAAAGUGAUUUGAAAAAUACUCAUUCUG", "RBNS enrichment (R)": 0.424}
{"Oligonucleotide": "GUACCGGGGCAUUGCCAGUCACCUGAGCUAAGGAAGCAGGCAGGCUGGUGGUUCUUCUGUUCUCAAGCCUUUCAGGUGAGGACACAUGGCCUGGUGAUGCAGCUGGCUGG", "RBNS enrichment (R)": 0.433}
{"Oligonucleotide": "UGAAAAAUGCCUUAGUGAUAAGCUUUCAUGGCAGAGCACGUCAAGAUAAAUGGGUAUACUGGAAUCCGAUGCCGUUUCUACAGUAAAGUGCAAUCUUCGUUGUUUUUGUA", "RBNS enrichment (R)": 0.413}
{"Oligonucleotide": "CUGUCUUAAGAGACUACUGGUUCAGCUCCAGGCCUCUGAAAGACAUGUUAUUUCUUCCUCACAUCCAUCCAGUGGGGAGGACCCUCUGACUUAAGGGACCACCUUGGGAA", "RBNS enrichment (R)": 0.215}
{"note": "For quick reference, copied from above (study 4):"}
{"Oligonucleotide": "AGCAUUGUGGCUCCUAGUGCAGCCCUGCUUCCACUCUUGGUUUAGCUGGAACCUUCCCACUCAUGGAAUAUAAGUAAACUCACUUUCUUUGUCACCAAUAAAUGGUAAUA", "RBNS enrichment (R)": 0.454}
{"Oligonucleotide": "UUGUUCUUUAAUAUGCUGUCCAUGGCUGAGUUUAUUAGUACAUGGGCUUAGUGACCACAAAAUAUUUUAUUAAGAAACUGUUUCAAAAAUAAAUUUGCACUGUUCAUUUU", "RBNS enrichment (R)": 2.03}
{"Oligonucleotide": "CUGUUCUGCUCCUCCCAGACAGAGCCUUUCCCUCACCCCCUGACCCCCUGGGCUGACCAAAAUGUGCUUUCUACUGUGAGUCCCUAUCCCAAGAUCCUGGGGAAAGGAGA", "RBNS enrichment (R)": 0.721}
{"Oligonucleotide": "CCCCAGACCUAGACCUCCCUUCUAAAAGCCAGAACCAGGAAGGCUUGCAUAAAGAAGGUGUGGCCUCUGAGCUCUCAAGGGCCCCAGUUGCCACCAACCACCACCACAGG", "RBNS enrichment (R)": 0.325}
{"Oligonucleotide": "GAAAUGAGGUUGAGAUGUUUUUCAAGGCUAACUUCAUGGACUCACUCUGUUUAGUGACUUAAUUGUAUCCCACCAAUUACUGCUGGUGACUUACUCACCCUUGUACAGUG", "RBNS enrichment (R)": 0.457}
{"Oligonucleotide": "UGAAAAUUAGGCCAAAUGAUUUUAUUCCAAAUGUAAUUUAAUUGCUGCUGUUGGGCUUUCGUUUCUGCAAUUCAGCUUUGUUUAAAGUGAUUUGAAAAAUACUCAUUCUG", "RBNS enrichment (R)": 0.424}
{"Oligonucleotide": "GUACCGGGGCAUUGCCAGUCACCUGAGCUAAGGAAGCAGGCAGGCUGGUGGUUCUUCUGUUCUCAAGCCUUUCAGGUGAGGACACAUGGCCUGGUGAUGCAGCUGGCUGG", "RBNS enrichment (R)": 0.433}
